Measured values from different studies.
Parts stem from different laboratories: compare values within a part only.
Sequence of UniProt Q16539 (whole entry, looked up): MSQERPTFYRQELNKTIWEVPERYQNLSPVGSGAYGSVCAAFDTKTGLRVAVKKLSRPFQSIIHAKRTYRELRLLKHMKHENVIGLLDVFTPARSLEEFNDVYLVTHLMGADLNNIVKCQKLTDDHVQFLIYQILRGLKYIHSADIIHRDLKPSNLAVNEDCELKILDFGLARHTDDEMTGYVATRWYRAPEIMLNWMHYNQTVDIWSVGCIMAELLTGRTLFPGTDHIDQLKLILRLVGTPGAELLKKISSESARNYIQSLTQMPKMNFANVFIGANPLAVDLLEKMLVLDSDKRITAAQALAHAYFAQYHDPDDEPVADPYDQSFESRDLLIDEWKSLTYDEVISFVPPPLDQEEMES
Sequence of UniProt Q5S007 (whole entry, looked up): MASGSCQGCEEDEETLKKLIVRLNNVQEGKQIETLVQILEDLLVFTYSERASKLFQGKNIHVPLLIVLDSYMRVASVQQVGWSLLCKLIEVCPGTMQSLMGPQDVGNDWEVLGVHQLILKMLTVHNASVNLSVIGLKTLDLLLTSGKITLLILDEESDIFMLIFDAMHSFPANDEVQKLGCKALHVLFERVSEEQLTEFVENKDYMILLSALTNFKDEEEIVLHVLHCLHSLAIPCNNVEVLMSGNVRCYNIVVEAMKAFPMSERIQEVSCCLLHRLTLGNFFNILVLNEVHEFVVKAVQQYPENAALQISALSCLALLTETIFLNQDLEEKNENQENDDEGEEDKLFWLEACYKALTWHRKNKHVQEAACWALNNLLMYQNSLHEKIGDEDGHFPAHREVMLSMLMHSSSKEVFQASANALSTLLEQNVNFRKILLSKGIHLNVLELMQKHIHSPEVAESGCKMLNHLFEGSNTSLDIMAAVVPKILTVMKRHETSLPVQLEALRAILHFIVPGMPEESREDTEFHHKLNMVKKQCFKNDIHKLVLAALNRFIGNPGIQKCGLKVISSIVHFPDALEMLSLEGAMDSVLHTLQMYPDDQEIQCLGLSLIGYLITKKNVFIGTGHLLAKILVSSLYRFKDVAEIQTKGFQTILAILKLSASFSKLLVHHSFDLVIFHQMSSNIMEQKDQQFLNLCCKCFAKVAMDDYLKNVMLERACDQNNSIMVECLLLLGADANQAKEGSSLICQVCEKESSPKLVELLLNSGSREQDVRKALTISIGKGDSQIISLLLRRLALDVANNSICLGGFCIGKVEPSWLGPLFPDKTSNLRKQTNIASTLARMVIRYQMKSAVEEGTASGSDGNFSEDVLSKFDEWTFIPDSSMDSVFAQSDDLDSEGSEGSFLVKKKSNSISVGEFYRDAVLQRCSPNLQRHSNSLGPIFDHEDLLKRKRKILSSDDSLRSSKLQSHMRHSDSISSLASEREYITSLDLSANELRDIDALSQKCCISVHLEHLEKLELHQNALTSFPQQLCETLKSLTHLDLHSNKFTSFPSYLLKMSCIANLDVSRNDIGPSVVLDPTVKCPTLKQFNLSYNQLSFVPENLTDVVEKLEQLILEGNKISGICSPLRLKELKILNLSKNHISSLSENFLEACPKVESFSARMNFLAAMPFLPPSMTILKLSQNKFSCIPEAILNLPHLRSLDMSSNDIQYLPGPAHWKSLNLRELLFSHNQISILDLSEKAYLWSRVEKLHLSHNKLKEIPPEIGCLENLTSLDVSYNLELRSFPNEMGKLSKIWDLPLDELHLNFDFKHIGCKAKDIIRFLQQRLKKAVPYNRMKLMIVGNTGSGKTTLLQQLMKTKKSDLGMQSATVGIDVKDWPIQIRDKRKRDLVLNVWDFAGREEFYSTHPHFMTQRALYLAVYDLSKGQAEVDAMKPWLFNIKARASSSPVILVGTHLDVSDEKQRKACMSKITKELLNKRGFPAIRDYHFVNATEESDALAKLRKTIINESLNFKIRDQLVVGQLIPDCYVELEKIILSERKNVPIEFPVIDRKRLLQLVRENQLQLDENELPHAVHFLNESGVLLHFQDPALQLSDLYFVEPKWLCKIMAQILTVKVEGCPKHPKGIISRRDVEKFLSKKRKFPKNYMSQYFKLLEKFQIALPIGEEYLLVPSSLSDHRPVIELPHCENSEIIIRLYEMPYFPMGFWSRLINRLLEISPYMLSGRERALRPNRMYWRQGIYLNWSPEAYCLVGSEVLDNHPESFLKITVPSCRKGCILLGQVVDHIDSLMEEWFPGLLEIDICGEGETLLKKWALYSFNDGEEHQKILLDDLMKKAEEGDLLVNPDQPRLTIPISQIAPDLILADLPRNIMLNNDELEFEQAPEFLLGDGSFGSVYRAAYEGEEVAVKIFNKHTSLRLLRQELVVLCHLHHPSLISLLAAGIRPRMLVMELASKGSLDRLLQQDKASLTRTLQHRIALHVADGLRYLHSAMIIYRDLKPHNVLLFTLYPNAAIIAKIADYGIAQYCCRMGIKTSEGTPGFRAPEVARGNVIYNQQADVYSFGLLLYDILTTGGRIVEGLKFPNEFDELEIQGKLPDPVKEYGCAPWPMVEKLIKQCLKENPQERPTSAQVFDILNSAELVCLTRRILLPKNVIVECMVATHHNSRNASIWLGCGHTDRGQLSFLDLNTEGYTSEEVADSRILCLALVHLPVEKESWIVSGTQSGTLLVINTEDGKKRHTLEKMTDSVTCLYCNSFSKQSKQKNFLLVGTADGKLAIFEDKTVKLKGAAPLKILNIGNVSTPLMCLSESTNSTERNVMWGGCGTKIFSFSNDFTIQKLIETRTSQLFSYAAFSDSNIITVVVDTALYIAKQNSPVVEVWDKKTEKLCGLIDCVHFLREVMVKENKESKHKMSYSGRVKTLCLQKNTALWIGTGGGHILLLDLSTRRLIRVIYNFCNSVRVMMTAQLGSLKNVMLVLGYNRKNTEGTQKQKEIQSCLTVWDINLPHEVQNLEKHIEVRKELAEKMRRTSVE

Sample 1
Structure (SMILES): COc1cc(-c2nc3ccc(C(=O)NCCCN(C)C)cc3n2C2CCC2)cc(OC)c1OC
The remaining binding was 71% (SRC (Homo sapiens, UniProt P12931); binding, competition with immobilised ligand; 1 µM).
It gave 91% for remaining binding (TBK1 (Homo sapiens, UniProt Q9UHD2); binding, competition with immobilised ligand; 1 µM).
For MAP3K7 (Homo sapiens, UniProt O43318); binding, competition with immobilised ligand; 1 µM: remaining binding read 100%.
PRKCH (Homo sapiens, UniProt P24723); binding, competition with immobilised ligand; 1 µM — remaining binding: 79%.
The remaining binding was 96% (NUAK1 (Homo sapiens, UniProt O60285); binding, competition with immobilised ligand; 1 µM).
It gave 94% for remaining binding (Ribosomal protein S6 kinase alpha-5, N-terminal kinase domain (RPS6KA5, Homo sapiens, UniProt O75582); binding, competition with immobilised ligand; 1 µM).
TGFBR2 (Homo sapiens, UniProt P37173); KINOMEscan; 1000 nM — remaining binding: 100%.
For CAMK2A (Homo sapiens, UniProt Q9UQM7); binding, competition with immobilised ligand; 1 µM: remaining binding read 88%.
KIT (Homo sapiens, UniProt P10721, V559D/V654A); binding, competition with immobilised ligand; 1 µM — remaining binding: 91%.
It gave 100% for remaining binding (EPHA5 (Homo sapiens, UniProt P54756); binding, competition with immobilised ligand; 1 µM).
It gave 86% for remaining binding (MERTK (Homo sapiens, UniProt Q12866); binding, competition with immobilised ligand; 1 µM).
It gave 50% for remaining binding (Tyrosine-protein kinase ABL1, phosphorylated (ABL1, Homo sapiens, UniProt P00519, M351T); binding, competition with immobilised ligand; 1 µM).
The remaining binding was 100% (CLK3 (Homo sapiens, UniProt P49761); binding, competition with immobilised ligand; 1 µM).
The remaining binding was 93% (BMX (Homo sapiens, UniProt P51813); binding, competition with immobilised ligand; 1 µM).
The remaining binding was 90% (PKMYT1 (Homo sapiens, UniProt Q99640); binding, competition with immobilised ligand; 1 µM).
EPHB6 (Homo sapiens, UniProt O15197); binding, competition with immobilised ligand; 1 µM — remaining binding: 100%.
The remaining binding was 92% (SIK3 (Homo sapiens, UniProt Q9Y2K2); binding, competition with immobilised ligand; 1 µM).
It gave 23% for remaining binding (Tyrosine-protein kinase ABL1, non-phosphorylated (ABL1, Homo sapiens, UniProt P00519, Q252H); binding, competition with immobilised ligand; 1 µM).
NEK9 (Homo sapiens, UniProt Q8TD19); binding, competition with immobilised ligand; 1 µM — remaining binding: 48%.
It gave 100% for remaining binding (EPHA4 (Homo sapiens, UniProt P54764); binding, competition with immobilised ligand; 1 µM).

Sample 2
SMILES: CCC1(c2cccc(-c3cn(C)nc3C)c2)C2=C(Nc3n[nH]cc31)C(F)C(C)(C)CC2=O (single isomer, unassigned)
Concentration: 1 µM
For CSNK2A1 (Homo sapiens, UniProt P68400); kinase binding, KINOMEscan; relative to: DMSO control: remaining binding read 95%.
The remaining binding was 100% (MAPK14 (Homo sapiens, UniProt Q16539); binding, competition with immobilised ligand).
BMPR1A (Homo sapiens, UniProt P36894); binding, competition with immobilised ligand — remaining binding: 100%.
The remaining binding was 100% (PRKAA2 (Homo sapiens, UniProt P54646); kinase binding, KINOMEscan; relative to: DMSO control).
It gave 100% for remaining binding (FLT3 (Homo sapiens, UniProt P36888, D835Y); kinase binding, KINOMEscan; relative to: DMSO control).
It gave 100% for remaining binding (SRC (Homo sapiens, UniProt P12931); binding, competition with immobilised ligand).
For MAPKAPK5 (Homo sapiens, UniProt Q8IW41); binding, competition with immobilised ligand: remaining binding read 100%.
The remaining binding was 100% (CDK3 (Homo sapiens, UniProt Q00526); kinase binding, KINOMEscan; relative to: DMSO control).
LRRK2 (Homo sapiens, UniProt Q5S007); binding, competition with immobilised ligand — remaining binding: 83%.
The remaining binding was 100% (PRKACA (Homo sapiens, UniProt P17612); kinase binding, KINOMEscan; relative to: DMSO control).
The remaining binding was 98% (ACVR1 (Homo sapiens, UniProt Q04771); kinase binding, KINOMEscan; relative to: DMSO control).
For MAPK15 (Homo sapiens, UniProt Q8TD08); kinase binding, KINOMEscan; relative to: DMSO control: remaining binding read 100%.

Sample 3
Compound: C[C@@H]1CN(c2ccc(-c3cc(C(=O)NCCOCCOCCOCCOCCNC(=O)Cn4cc(-c5[nH]cc(C(=O)N[C@@H](CC(N)=O)c6ccc(F)c(Cl)c6)c5-c5ccc(Cl)cc5F)cn4)ccc3F)cc2NC(=O)c2c[nH]c(=O)cc2C(F)(F)F)C[C@H](C)N1C
Effect on: thermal unfolding
Technique: differential scanning fluorimetry
Concentration: 5.5 µM
Reading: higher = more unfolded
DCAF1: DDB1- and CUL4-associated factor 1 (DCAF1, Homo sapiens, UniProt Q9Y4B6)
Sequence of UniProt Q9Y4B6 (whole entry, looked up): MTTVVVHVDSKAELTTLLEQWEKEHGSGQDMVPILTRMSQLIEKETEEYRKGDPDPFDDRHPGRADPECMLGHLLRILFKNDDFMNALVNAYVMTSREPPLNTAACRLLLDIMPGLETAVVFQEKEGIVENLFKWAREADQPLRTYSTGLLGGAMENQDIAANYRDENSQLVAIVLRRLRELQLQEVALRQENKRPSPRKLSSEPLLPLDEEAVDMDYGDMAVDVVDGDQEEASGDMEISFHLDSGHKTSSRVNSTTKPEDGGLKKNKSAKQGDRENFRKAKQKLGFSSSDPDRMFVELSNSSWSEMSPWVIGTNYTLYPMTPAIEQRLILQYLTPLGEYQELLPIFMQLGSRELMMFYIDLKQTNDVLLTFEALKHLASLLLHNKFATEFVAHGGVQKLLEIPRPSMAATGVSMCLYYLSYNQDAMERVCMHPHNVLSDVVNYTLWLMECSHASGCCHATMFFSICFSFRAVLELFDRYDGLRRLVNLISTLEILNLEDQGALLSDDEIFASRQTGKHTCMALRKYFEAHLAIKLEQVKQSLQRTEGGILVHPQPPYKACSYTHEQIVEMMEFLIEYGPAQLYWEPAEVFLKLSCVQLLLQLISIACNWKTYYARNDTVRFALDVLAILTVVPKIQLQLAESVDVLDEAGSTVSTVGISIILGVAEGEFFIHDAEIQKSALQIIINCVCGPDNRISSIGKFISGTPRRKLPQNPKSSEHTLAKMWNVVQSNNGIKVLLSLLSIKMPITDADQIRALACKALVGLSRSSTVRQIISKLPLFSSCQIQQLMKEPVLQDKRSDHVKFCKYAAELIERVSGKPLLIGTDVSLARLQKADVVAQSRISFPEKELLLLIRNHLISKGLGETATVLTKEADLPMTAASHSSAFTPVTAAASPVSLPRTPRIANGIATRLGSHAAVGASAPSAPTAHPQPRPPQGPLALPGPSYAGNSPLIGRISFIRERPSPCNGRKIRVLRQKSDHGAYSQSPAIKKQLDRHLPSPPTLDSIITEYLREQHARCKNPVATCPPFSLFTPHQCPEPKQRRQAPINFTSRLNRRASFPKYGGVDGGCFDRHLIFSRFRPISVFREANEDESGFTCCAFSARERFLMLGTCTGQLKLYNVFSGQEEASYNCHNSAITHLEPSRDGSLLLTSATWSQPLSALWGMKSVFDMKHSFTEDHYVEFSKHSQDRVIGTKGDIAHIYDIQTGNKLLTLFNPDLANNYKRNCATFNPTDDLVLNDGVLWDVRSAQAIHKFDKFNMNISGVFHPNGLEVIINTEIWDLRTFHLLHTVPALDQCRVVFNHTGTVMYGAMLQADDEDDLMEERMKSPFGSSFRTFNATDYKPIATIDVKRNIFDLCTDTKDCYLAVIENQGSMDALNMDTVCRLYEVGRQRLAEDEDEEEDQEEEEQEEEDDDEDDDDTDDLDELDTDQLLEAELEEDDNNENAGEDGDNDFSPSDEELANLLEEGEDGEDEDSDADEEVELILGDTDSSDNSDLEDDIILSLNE
WDR5: WD repeat-containing protein 5 (WDR5, Homo sapiens, UniProt P61964)
The “SYPRO Orange fluorescence” was 12300 a.u. (DCAF1; 45.4 °C).
It gave 8100 a.u. for “SYPRO Orange fluorescence” (DCAF1; 29.2 °C).
The “SYPRO Orange fluorescence” was 43500 a.u. (DCAF1; 80.81 °C).
It gave 15000 a.u. for “SYPRO Orange fluorescence” (WDR5; 30.4 °C).
DCAF1; 36 °C — “SYPRO Orange fluorescence”: 9190 a.u.
For WDR5; 41.4 °C: “SYPRO Orange fluorescence” read 14200 a.u.
For DCAF1; 68.21 °C: “SYPRO Orange fluorescence” read 56000 a.u.
It gave 42200 a.u. for “SYPRO Orange fluorescence” (WDR5; 91.21 °C).
DCAF1; 67.81 °C — “SYPRO Orange fluorescence”: 56300 a.u.
For WDR5; 49.6 °C: “SYPRO Orange fluorescence” read 14500 a.u.
For WDR5; 91.81 °C: “SYPRO Orange fluorescence” read 41600 a.u.

Sample 4
Species: female CD-1 mouse
Sample: plasma
Route: oral
Dose: 20 mg/kg
Cc1ccc(O)c(C)c1-c1cnc2[nH]c(-c3cnc(N4CCC(CN5CCN(c6cc7c(cc6F)n(C6CCC(=O)NC6=O)c(=O)n7C)CC5)CC4)nc3)cc2c1C#N (stereo not drawn) has a Cmax of 702 ng/mL.
The Cmax of Cc1ccc(O)c(C)c1-c1cnc2[nH]c(-c3cnc(N4CCC5(CC4)CC(N4CCN(c6ccc(NC7CCC(=O)NC7=O)cc6F)CC4)CO5)nc3)cc2c1C#N (stereo not drawn) is reported as 948 ng/mL.
Cc1ccc(O)c(C)c1-c1cnc2[nH]c(-c3cnc(N4CCC5(CC4)CC(CN4CCN(c6ccc(NC7CCC(=O)NC7=O)cc6F)CC4)C5)nc3)cc2c1C#N (stereo not drawn) gave a Cmax of 472 ng/mL.
The Cmax of Cc1ccc(O)c(C)c1-c1cnc2[nH]c(-c3cnc(N4CCC(CN5CCN(c6ccc7c(c6F)CN(C6CCC(=O)NC6=O)C7=O)CC5)CC4)nc3)cc2c1C#N (stereo not drawn) is reported as 1000 ng/mL.
Cc1ccc(O)c(C)c1-c1cnc2[nH]c(-c3cnc(N4CCC(CN5CCN(c6cc7c(cc6F)c(N6CCC(=O)NC6=O)nn7C)CC5)CC4)nc3)cc2c1C#N has a Cmax of 1580 ng/mL.

For quick reference, copied from above (sample 3):
DCAF1; 36 °C — “SYPRO Orange fluorescence”: 9190 a.u.
For WDR5; 41.4 °C: “SYPRO Orange fluorescence” read 14200 a.u.
For DCAF1; 68.21 °C: “SYPRO Orange fluorescence” read 56000 a.u.
It gave 42200 a.u. for “SYPRO Orange fluorescence” (WDR5; 91.21 °C).
DCAF1; 67.81 °C — “SYPRO Orange fluorescence”: 56300 a.u.
For WDR5; 49.6 °C: “SYPRO Orange fluorescence” read 14500 a.u.
For WDR5; 91.81 °C: “SYPRO Orange fluorescence” read 41600 a.u.
